Literature values, collected from citations in different studies.
Lines come from different studies, so protocols differ. ± marks the error that the study gave.
Chain of UniProt P08183 (whole entry, looked up): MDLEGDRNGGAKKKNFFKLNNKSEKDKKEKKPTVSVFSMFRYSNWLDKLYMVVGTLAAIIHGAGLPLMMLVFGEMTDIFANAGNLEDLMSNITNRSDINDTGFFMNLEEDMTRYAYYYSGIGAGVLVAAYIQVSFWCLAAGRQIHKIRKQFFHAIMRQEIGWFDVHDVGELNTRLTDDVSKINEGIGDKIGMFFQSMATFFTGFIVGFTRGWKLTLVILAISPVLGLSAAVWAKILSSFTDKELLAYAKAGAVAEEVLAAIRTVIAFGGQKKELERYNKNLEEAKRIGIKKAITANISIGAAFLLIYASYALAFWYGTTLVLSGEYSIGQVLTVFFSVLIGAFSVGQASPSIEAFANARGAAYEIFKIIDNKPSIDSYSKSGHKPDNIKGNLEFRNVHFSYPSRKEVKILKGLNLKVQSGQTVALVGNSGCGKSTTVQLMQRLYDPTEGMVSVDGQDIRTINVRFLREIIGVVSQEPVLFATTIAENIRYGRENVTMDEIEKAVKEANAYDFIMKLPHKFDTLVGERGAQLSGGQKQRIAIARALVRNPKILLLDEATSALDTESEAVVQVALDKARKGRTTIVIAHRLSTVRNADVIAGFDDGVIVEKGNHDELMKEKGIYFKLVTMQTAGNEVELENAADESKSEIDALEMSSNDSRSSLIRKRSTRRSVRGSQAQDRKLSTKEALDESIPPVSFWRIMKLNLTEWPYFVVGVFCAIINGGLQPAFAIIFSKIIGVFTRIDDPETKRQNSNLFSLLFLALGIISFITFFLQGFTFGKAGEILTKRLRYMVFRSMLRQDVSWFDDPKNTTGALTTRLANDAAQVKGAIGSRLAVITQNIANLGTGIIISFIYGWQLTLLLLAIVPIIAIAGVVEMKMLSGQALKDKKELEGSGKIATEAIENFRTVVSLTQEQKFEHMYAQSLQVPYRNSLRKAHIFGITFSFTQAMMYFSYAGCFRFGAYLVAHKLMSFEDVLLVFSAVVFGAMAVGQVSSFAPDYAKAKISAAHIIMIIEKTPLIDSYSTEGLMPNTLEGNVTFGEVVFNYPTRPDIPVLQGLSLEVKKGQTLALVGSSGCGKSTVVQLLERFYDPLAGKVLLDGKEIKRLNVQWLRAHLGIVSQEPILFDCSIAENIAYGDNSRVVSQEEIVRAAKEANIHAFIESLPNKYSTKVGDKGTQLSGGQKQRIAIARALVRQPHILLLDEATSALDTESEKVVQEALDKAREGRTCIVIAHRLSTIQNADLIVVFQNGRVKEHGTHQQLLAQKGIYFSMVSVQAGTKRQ
Chain of UniProt P10635 (whole entry, looked up): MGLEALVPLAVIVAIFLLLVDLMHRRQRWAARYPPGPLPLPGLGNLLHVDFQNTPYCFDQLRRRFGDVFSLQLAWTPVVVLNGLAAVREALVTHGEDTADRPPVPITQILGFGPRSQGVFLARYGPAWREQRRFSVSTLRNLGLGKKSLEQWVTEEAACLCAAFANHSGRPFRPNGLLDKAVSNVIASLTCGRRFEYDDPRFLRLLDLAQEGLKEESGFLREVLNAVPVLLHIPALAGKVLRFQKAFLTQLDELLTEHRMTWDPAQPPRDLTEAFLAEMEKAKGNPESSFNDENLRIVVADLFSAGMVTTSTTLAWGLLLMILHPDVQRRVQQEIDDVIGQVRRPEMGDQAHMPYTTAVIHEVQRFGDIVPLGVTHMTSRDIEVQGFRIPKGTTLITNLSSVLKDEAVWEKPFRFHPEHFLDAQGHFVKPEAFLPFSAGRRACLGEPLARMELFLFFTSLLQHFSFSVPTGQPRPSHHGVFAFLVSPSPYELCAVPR
Chain of UniProt P08684 (whole entry, looked up): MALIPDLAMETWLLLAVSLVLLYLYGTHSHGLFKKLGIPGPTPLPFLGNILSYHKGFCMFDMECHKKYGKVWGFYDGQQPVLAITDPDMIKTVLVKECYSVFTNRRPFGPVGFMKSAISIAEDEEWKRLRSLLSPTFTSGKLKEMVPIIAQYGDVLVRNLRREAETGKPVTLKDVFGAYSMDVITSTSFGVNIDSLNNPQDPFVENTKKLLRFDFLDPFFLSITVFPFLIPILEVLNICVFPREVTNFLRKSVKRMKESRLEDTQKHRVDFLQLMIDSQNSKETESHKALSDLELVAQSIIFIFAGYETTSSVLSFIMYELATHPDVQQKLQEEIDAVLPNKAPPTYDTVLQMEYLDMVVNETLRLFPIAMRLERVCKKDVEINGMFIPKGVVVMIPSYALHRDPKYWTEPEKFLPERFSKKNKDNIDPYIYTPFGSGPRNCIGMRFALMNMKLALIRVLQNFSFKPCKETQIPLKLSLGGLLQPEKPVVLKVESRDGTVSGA

| Compound | tested on | assay | test system | setting | endpoint | value |
| --- | --- | --- | --- | --- | --- | --- |
| CCC(=O)O[C@@H]1[C@@H](OC(C)=O)C2=C(C(=O)C(O)=C(C(C)C)C2=O)[C@@]2(C)CCCC(C)(C)[C@H]12 | HL-60 | cell growth |  |  | GI50 | 10 to 30 µM |
| CN1CCC(C)(C)c2cc3c(-c4ccc(C(=S)N5CCCCC5)s4)c4ccc(=[N+](C)C)cc-4sc3cc21 | ABCB1 (Homo sapiens, UniProt P08183) | substrate |  | no inhibitor | cell-associated fraction | 34 ± 3% |
| CC(=O)OC1=C(C(C)C)C(=O)C2=C(C1=O)[C@@]1(C)CCCC(C)(C)[C@@H]1[C@H](OC(C)=O)[C@H]2OC(C)=O | MOLT-3 |  |  |  | GI50 | ≤ 5 µM |
| O=C1c2ccccc2-c2c1c1ccc([N+](=O)[O-])cc1c(=O)n2C[C@H](O)CO | SN12C | cell growth |  | renal cancer panel | GI50 | 0.241 µM |
| COCCOCCOCCOCCC(=O)NCc1cc(CNC(=O)CCOCCOCCOCCOC)cc(-c2cc3cc4nc(c(OC)c5[nH]c(cc6nc(cc2[nH]3)CC6(C)C)cc5-c2cc(CNC(=O)CCOCCOCCOCCOC)cc(CNC(=O)CCOCCOCCOCCOC)c2)CC4(C)C)c1 |  |  | DMF | room temperature | Qy emission maximum | 735 nm |
| CC(C)C1=C(O)C(=O)C2=C(C1=O)[C@H](OC=O)[C@@H](O)[C@H]1C(C)(C)CCC[C@]21C | MCF7 | cell growth |  |  | GI50 | 5 to 10 µM |
| CC(=O)N1CCC(NC(=O)NC23CC4CC(C)(CC(C2)c2ccccc24)C3)CC1 | Cytochrome P450 3A4 (CYP3A4, Homo sapiens, UniProt P08684) | enzyme activity, inhibitor |  | 10 µM, added: BFC substrate | inhibition | 19 ± 3% |
| O=C1c2ccccc2-c2c1c1ccc([N+](=O)[O-])cc1c(=O)n2C[C@H](O)[C@@H](O)[C@H](O)[C@H](O)CO | UACC-62 | cell growth |  | melanoma cancer panel | GI50 | 2.98 µM |
| COc1ccc(Nc2nccc(-c3c[nH]nc3-c3cccnc3)n2)cc1 | Cytochrome P450 2D6 (CYP2D6, Homo sapiens, UniProt P10635) |  |  | 10 µM | inhibition | 4% |
| CCCC(=O)O[C@@H]1[C@@H](OC(C)=O)C2=C(C(=O)C(O)=C(C(C)C)C2=O)[C@@]2(C)CCCC(C)(C)[C@H]12 | MCF7 | cell growth |  |  | GI50 | 5 to 10 µM |
| C=C[C@@H]1C[C@]1(NC(=O)[C@@H]1C[C@@H](Oc2cc(-c3ccccc3)nc3cc(OC)ccc23)CN1C(=O)[C@@H](NC(=O)OC(C)(C)C)C(C)(C)C)C(=O)NS(=O)(=O)C1CC1 |  |  | rat | intravenous, 5 mg/kg | clearance | 55 mL/min/kg |
| CC(=O)O[C@H]1C2=C(C(=O)C(OC(=O)c3ccc(C)cc3)=C(C(C)C)C2=O)[C@@]2(C)CCCC(C)(C)[C@@H]2[C@@H]1O | HL-60 | cell growth |  |  | GI50 | ≤ 5 µM |
| CN1CCN(c2cc(-c3ccccc3CO)c(N(C)C(=O)C(C)(C)c3cc(C(F)(F)F)cc(C(F)(F)F)c3)cn2)CC1 |  |  | healthy volunteers, plasma | oral, 450 mg, single dose, netupitant alone | Cmax | 93 ng/mL |
| COc1ccc(Oc2ccc([C@@H](C)N(C)c3ncc4c(N)nc(N)nc4n3)cc2)cc1 | MRC-5 | cell growth |  |  | active concentration | 5.4 µM |
| Cc1ccccc1-c1cc(N2CC[N+](C)([O-])CC2)ncc1N(C)C(=O)C(C)(C)c1cc(C(F)(F)F)cc(C(F)(F)F)c1 |  |  | healthy volunteers, plasma | oral, 450 mg, single dose, added: palonosetron 0.75 mg | AUC(0-inf) | 2760 ng·h/mL |
| C=C[C@@H]1C[C@]1(NC(=O)[C@@H]1C[C@@H](Oc2ncc(OC)c3ccccc23)CN1C(=O)[C@@H](NC(=O)OC(C)(C)C)C(C)(C)C)C(=O)NS(=O)(=O)C1CC1 |  |  | rat, liver | oral, 15 mg/kg, 24 h | tissue concentration | 4.2 µM |
| CC(=O)O[C@H]1C2=C(C(=O)C(O)=C(C(C)C)C2=O)[C@@]2(C)CCCC(C)(C)[C@@H]2[C@@H]1O | MCR5 | cell growth |  |  | GI50 | 5 to 10 µM |
| Cc1ccccc1-c1cc(N2CCNCC2)ncc1N(C)C(=O)C(C)(C)c1cc(C(F)(F)F)cc(C(F)(F)F)c1 |  |  | healthy volunteers, plasma | oral, 450 mg, single dose, added: palonosetron 0.75 mg | AUC(0-inf) | 8070 ng·h/mL |

A few entries again:
| Compound | tested on | assay | test system | setting | endpoint | value |
| --- | --- | --- | --- | --- | --- | --- |
| C=C[C@@H]1C[C@]1(NC(=O)[C@@H]1C[C@@H](Oc2ncc(OC)c3ccccc23)CN1C(=O)[C@@H](NC(=O)OC(C)(C)C)C(C)(C)C)C(=O)NS(=O)(=O)C1CC1 |  |  | rat, liver | oral, 15 mg/kg, 24 h | tissue concentration | 4.2 µM |
